Measured values collected from several papers.
Numbered parts are unrelated; each lists some results of a single study. Positions count from the first letter of the parent shown.

Study 1
Target: Interferon regulatory factor 5, full length, phosphomimetic (IRF5, Homo sapiens, UniProt Q13568-2, residues 1-514, K96S/S451D/S453D/S456D/S462D)
Method: protein-binding microarray
Molecule type: double-stranded DNA, one strand shown
Sample: in vitro
Tested at: 250 nM
Notes: 60-bp whole probe
Together with: salmon DNA 0.4 mg/ml
Reference: random background probes
Reading: higher = stronger binding
Shared flanks, not repeated: GCCTAGCAC … GTCTTGATTCGCTTGACGCTGCTG
| Strand | log fluorescence [z-score] |
| --- | --- |
| TCAACCATCCCTTATAAAACTGTGCTA | 0.45 |
| TTAGGTTGCCTTTCCCTTTAGTGCTAG | 0.261 |
| CCAGTTGAGCACAGGAAAGTGTGCTAG | -0.19 |
| ACAGGACAGTCCCATCTACCGTGCTAG | -0.331 |
| TTAGGTTTCCTTCTCCTTTCGTGCTAG | 1.74 |

Study 2
Target: CCNB1, cyclin fold, Cln2 fusion (human)
Method: yeast growth competition, sequencing
Sample: yeast
Notes: strong parent motif
Reference: not given
Reading: higher = stronger binding
Parent: MASTL docking peptide (human); PMIAKNLMCELDE
| Substitution | normalised enrichment score |
| --- | --- |
| PMIAKNLMCYLDE [E10Y] | 1.35 |
| PMIAKYLMCELDE [N6Y] | 0.181 |
| PKIAKNLMCELDE [M2K] | 2.73 |

Study 3
Target: Sal-like protein 4, full length isoform B (SALL4, Homo sapiens, UniProt Q9UJQ4-2, residues 1-616)
Method: universal PBM
Molecule type: double-stranded DNA, one strand shown
Sample: in vitro
Tested at: not given
Notes: 8-mer, flanks averaged, mean of replicates
Reading: higher = stronger binding
Construct (chain): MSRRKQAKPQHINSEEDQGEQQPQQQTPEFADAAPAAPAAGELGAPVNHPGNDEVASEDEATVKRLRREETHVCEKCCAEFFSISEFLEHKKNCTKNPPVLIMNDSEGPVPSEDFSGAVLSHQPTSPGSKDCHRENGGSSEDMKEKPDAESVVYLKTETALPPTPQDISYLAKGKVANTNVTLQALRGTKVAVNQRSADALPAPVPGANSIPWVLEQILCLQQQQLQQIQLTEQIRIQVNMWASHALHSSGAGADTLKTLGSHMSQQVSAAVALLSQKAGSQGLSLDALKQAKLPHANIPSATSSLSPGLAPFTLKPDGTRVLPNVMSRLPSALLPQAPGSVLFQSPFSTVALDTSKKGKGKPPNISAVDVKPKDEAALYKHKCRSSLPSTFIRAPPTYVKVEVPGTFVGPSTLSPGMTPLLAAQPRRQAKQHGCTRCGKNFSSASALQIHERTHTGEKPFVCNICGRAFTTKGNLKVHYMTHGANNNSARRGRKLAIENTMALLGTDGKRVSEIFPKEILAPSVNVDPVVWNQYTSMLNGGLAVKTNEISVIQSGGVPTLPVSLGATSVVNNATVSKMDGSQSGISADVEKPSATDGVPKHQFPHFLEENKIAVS
| Strand | E-score |
| --- | --- |
| AGTCCTTG | -0.112 |
| CGCAGCAA | -0.147 |
| ACAGTCAG | -0.124 |
| ATCTACGG | 0.0407 |

Mixed results
| Substance | target | assay | system | conditions | how to read | quantity | value |
| --- | --- | --- | --- | --- | --- | --- | --- |
| PhoQ, residues 284 288 289 292 302 303 TYGVAM | PhoP, residues 12 14 15 18 19 NNFVT (Escherichia coli, UniProt P23836) | Sort-seq, measured: YFP reporter | E. coli | PhoQ-PhoP variant library, together with: 10 µM Mg2+ | reference: high Mg2+ state, higher = stronger signaling | fold induction | 1.68 |
